Measured values of several laboratories.
Protocols differ between the studies behind these lines. Several values in a cell are separate wells, animals, samples, runs or records. ± gives the spread as reported.
fdhA: fdhA (Pseudomonas putida, UniProt P46154)
DDR2: Discoidin domain-containing receptor 2 (DDR2, Homo sapiens, UniProt Q16832)

Structure (SMILES) | target or system | test | test system | conditions | how to read | measurement | result
CC(C)C[C@H](NC(=O)C[C@H](O)[C@H](CC(C)C)NC(=O)[C@H](Cc1c[nH]cn1)NC(=O)CNC(=O)[C@@H](NC(=O)[C@H](C)NC(=O)[C@H](Cc1c[nH]c2ccccc12)NC(=O)[C@H](CCC(N)=O)NC(=O)[C@@H](Cc1ccccc1)NC(=O)COCCOCCNC(=O)CCC(C(=O)O)N1CCN(CC(=O)O)CCN(CC(=O)O)CCN(CC(=O)O)CC1)C(C)C)C(N)=O (stereo partly shown) [lutetium-177 labelled] | – | – | BALB/c nu/nu mice, lung | intravenous, 50 pmol, 1 h, added: PA 300 µg | – | tissue uptake | 0.6 ± 0.1 %ID/g
COc1cc(-c2cncc3c2CN(C)Cc2cc(N4CCNCC4)ccc2-3)cc(OC)c1OC | Serine/threonine-protein kinase pim-3 (PIM3, Homo sapiens, UniProt Q86V86) | kinase activity | – | 1 µM, human enzyme, added: ATP 10 µM | baseline: DMSO control | remaining activity | 103%
CCCCCCCCCCCCCCNC(=O)/C=C/c1ccc(O)c(O)c1 | Pancreatic alpha-amylase (AMY2, Sus scrofa, UniProt P00690) | enzyme activity | – | 10 µM, added: α-glucosidase present | – | remaining activity | 79.2 ± 1.42%
Nc1nc(N)c2nc(CNc3ccc(C(=O)N[C@@H](CCC(=O)O)C(=O)O)cc3)cnc2n1 | human iPSC-derived cardiomyocytes | MyBP-C/MYH ratio, plate-normalised SD score | – | concentration not given, primary screen | direction not given | activity score | 3.3
Cc1cc(Nc2cc(N3CCN(C)CC3)nc(Sc3ccc(NC(=O)C4CC4)cc3)n2)[nH]n1 | Protein kinase C zeta type (PRKCZ, Homo sapiens, UniProt Q05513) | kinase activity, KinaseProfiler | – | 0.03 µM, species human | baseline: control | remaining activity | 93%
OC[C@H]1O[C@@H](O[C@H]2[C@H](O)[C@@H](O)C(O)O[C@@H]2CO)[C@H](O)[C@@H](O)[C@@H]1O (stereo partly shown) | uncharacterized protein (Paenibacillus xylanivorans, UniProt A0A0N0C5Q2) | enzyme activity, product inhibitor | – | 250000 µM, pH 4.5, 40 °C | – | remaining activity | ~50%
CCCCCC/C(C)=N/Nc1ccc([N+](=O)[O-])cc1[N+](=O)[O-] | fdhA | – | – | concentration not given, no demethylase | – | remaining activity | > 80%
Cn1cc(-c2ccc(-c3cncc(Cl)c3N3CCC4(CCNC4=O)CC3)cc2)cn1 | COLO 205 | gene expression, microarray, item: CD59 mRNA | – | concentration not given, 6 h | baseline: untreated cells | log2 fold change | 2.42
c1cnc2ccc(Nc3nc(NC4CC4)c4nc[nH]c4n3)cc2c1 | DDR2 | kinase activity, inhibitor, SelectScreen kinase profiling | – | 1 µM | baseline: control | remaining activity | 90%
N#C[C@@]12C[C@@H]1[C@@H](n1cnc3c(NC4CCCC4)nc(I)nc31)[C@H](O)[C@@H]2O | 5-hydroxytryptamine receptor 2A (Rattus norvegicus, UniProt P14842) | antagonist, Gq dissociation BRET | – | rat receptor | – | Kb | 5.51 µM
Cc1cccc(C)c1C(=O)OCC(=O)[C@H](CCCCN)NC(=O)[C@H](CCCNC(=N)N)NC(=O)OCc1ccccc1 | Pro-cathepsin H (Ctsh, Mus musculus, UniProt P49935) | inhibitor | – | 0.1 µM, room temperature, added: AMC substrate | – | remaining activity | 92%
C=CC(=O)N1CCC[C@@H](n2nc(-c3ccc(Oc4ccccc4)cc3)c3c(N)ncnc32)C1 | Dual specificity testis-specific protein kinase 2 (TESK2, Homo sapiens, UniProt Q96S53) | – | – | 1 µM | – | remaining activity | 83.5%
CN(C)c1ccc(C(=C2C=CC(=[N+](C)C)C=C2)c2ccc(N(C)C)cc2)cc1 | MYBPC3 iPSC cardiomyocytes | plate-normalised | – | concentration not given, 24 h, hit retest | – | MyBP-C level | 1.2%
CC(C)OCCn1c(=S)[nH]c(=O)c2[nH]ccc21 | Myeloperoxidase (MPO, Homo sapiens, UniProt P05164) | chlorination activity | – | 1.25 µM, 0.1 h, added: iodide, TMB | – | remaining activity | 28.8%
NC(=O)c1ncn([C@@H]2O[C@H](CO[P@@](=O)(O)O[P@](=O)(O)OP(=O)(O)O)[C@@H](O)[C@H]2O)n1 | Non-structural polyprotein pORF1, helicase domain (Hepatitis E virus genotype 1, UniProt P33424) | ATPase activity, inhibitor, colorimetric | – | 3.5 µM | baseline: untreated | remaining activity | 77.7%
O=C(NC1CCC1)c1ccc2nc(-c3cccc(NS(=O)(=O)NCCN4CCCCC4)c3)cn2c1 | DDR2 | enzyme activity | – | 10 µM | – | remaining activity | 100%
CC(C)[C@H](NC(=O)[C@H](Cc1ccc(O)cc1)NC(=O)[C@H](Cc1ccc(O)cc1)NC(=O)[C@@H]1CCCN1C(=O)[C@H](CCC(=O)O)NC(=O)[C@H](CCC(=O)O)NC(=O)[C@H](Cc1c[nH]c2ccccc12)NC(=O)[C@@H]1CCCN1C(=O)[C@@H](NC(=O)[C@H](CCC(N)=O)NC(=O)c1ccc2c(c1)C(=O)OC21c2ccc(O)cc2Oc2cc(O)ccc21)C(C)C)C(=O)N[C@H](C(=O)N[C@@H](CCCCN)C(=O)N[C@@H](CCCCN)C(=O)N[C@@H](CO)C(=O)N[C@@H](CO)C(=O)NCC(=O)NCC(N)=O)C(C)C | – | – | human, plasma | intravenous infusion, 400 mg, 0.25 h after infusion start | – | plasma concentration | 21200 ng/mL and 11900 ng/mL
O=C(O)c1ccc(Nc2ncc3c(n2)-c2ccc(Cl)cc2C(c2c(F)cccc2F)=NC3)cc1 | bovine PKA | inhibitor, biochemical kinase | – | 1 µM | – | remaining activity | 86%
C/C(=N/Nc1ccc([N+](=O)[O-])cc1[N+](=O)[O-])c1ccccc1 | fdhA | – | – | concentration not given, without demethylase | – | remaining activity | > 80%
C[C@@H](Oc1ccc(S(C)(=O)=O)cc1C(=O)N1C[C@@H]2C[C@]2(c2cc(C(F)(F)F)on2)C1)C(F)(F)F | Sodium- and chloride-dependent glycine transporter 1 (SLC6A9, Homo sapiens, UniProt P48067, L476T) | glycine uptake, inhibitor, [3H]glycine uptake | – | 0.003 µM, L422T mutant, log concentration 3, added: [3H]glycine | baseline: no inhibitor | remaining activity | 75.5%
COc1cc(N2CCN(C)CC2)ccc1Nc1nc(N)n(C(=O)NCc2c(Cl)cccc2Cl)n1 | Misshapen-like kinase 1 (MINK1, Homo sapiens, UniProt Q8N4C8) | enzyme activity | – | 10 µM | baseline: control | remaining activity | 22%
NC/C(=C\F)COc1cccc(Cn2c(=S)[nH]c(=O)c3[nH]cnc32)c1 | Amine oxidase [copper-containing] 3 (AOC3, Homo sapiens, UniProt Q16853) | dilution jump | – | concentration not given | baseline: DMSO control | remaining activity | 7.9% and 11.2% and 17.5%
COc1cc(F)ccc1-c1ncnc(Nc2cccc(C[S@](C)(=N)=O)c2)n1 | DDR2 | kinase activity | – | 10 µM, added: 10 µM ATP | – | remaining activity | 90%
CNc1ncc2c(/C=C/C(=O)N3CCC(OC)CC3)nn(Cc3cccc(C(F)(F)F)c3)c2n1 | Protein kinase C zeta type, PKMzeta isoform (PRKCZ, Homo sapiens, UniProt Q05513) | kinase activity, inhibitor | – | 1 µM | baseline: untreated control | remaining activity | 96%
O=C1NC(=O)/C(=C/c2ccc(-c3ccc(F)cc3O)o2)S1 | Eukaryotic elongation factor 2 kinase (EEF2K, Homo sapiens, UniProt O00418) | enzyme activity | – | 10 µM | – | remaining activity | 91%
C=CC(=O)N1CCC[C@@H](n2nc(-c3ccc(Oc4ccccc4)cc3)c3c(N)ncnc32)C1 | Mitogen-activated protein kinase kinase kinase 20 (MAP3K20, Homo sapiens, UniProt Q9NYL2) | kinase activity, inhibitor, HotSpot radiometric | – | 100 nM, added: ATP 10 µM | – | remaining activity | 79.3 ± 0.2%
COc1cc(N2CCN(C)CC2)ccc1Nc1nc(N)n(C(=S)NCc2c(Cl)cccc2Cl)n1 | Serine/threonine-protein kinase PRP4 homolog (PRPF4B, Homo sapiens, UniProt Q13523) | enzyme activity | – | 10 µM | baseline: control | remaining activity | 0%
COc1cc(Nc2ncc3c(n2)-c2ccc(Cl)cc2C(c2c(F)cccc2OC)=NC3)ccc1C(=O)O | PKC beta I | inhibitor, biochemical kinase | – | 1 µM | – | remaining activity | 105%
